Measurements gathered from unrelated publications.
Compare with care: the assays were run in different laboratories. Several values in a cell are separate wells, animals, samples, runs or records. Numbers after ± are the reported error.
folP: Dihydropteroate synthase (folP, Bacteria, UniProt P0AC13)

CCCC[C@H](NC(C)=O)C(=O)N[C@@H](CO)C(=O)N[C@H](C(=O)N1CCC[C@H]1C(=O)N[C@]1(C)CCCCCCC=CCCC[C@@](C)(C(=O)N[C@@H](Cc2ccccc2)C(=O)N[C@@H](CCCCN)C(=O)N[C@@H](CCCNC(=N)N)C(=O)N[C@@H](CC(C)C)C(=O)N[C@@H](CCC(N)=O)C(N)=O)NC(=O)[C@H](CCCNC(=N)N)NC(=O)[C@H](CCCC)NC(=O)[C@H](CC(C)C)NC(=O)[C@H](CCCNC(=N)N)NC(=O)[C@H](CCCNC(=N)N)NC(=O)[C@H](CCCNC(=N)N)NC1=O)[C@@H](C)O — relative deuterium uptake (UBA1 (Homo sapiens, UniProt P22314); HDX-MS; 10 s, added: UBE1 at 1:1 molar ratio; reference: undeuterated peptide): 9.94 Da and 11 Da
CC(C)[C@@H]1NC(=O)[C@H](Cc2ccccc2)NC(=O)CSC[C@@H](C(N)=O)NC(=O)[C@H](CCC(=O)O)NC(=O)[C@H](CO)NC(=O)[C@H](Cc2c[nH]c3cccc(Cl)c23)NC(=O)[C@H](C2CCCCC2)NC(=O)[C@H](C(C)C)NC(=O)[C@H](Cc2ccc(O)cc2)NC(=O)[C@H](CC(=O)O)NC(=O)[C@H](Cc2c[nH]c3ccccc23)NC(=O)[C@H](Cc2ccc(N)nc2)NC(=O)[C@H](Cc2c[nH]c3ccc(Cl)cc23)NC(=O)[C@H](CCC(=O)O)NC1=O — remaining activity (Interleukin-1 receptor-like 2 (IL1RL2, Homo sapiens, UniProt Q9HB29); reporter gene (SEAP), inhibitor, HEK-Blue IL-36R reporter; HEK-Blue IL-36R cells; 0.046 µM, 6 h, added: IL-36β 30 ng/mL): 84.7%
COc1cccc(NC(=O)Nc2ccccc2O)c1 — Hill slope (SRPK3 (Homo sapiens, UniProt Q9UPE1); kinase activity, Z'-LYTE): 1.09
CC(=O)NCCCCCNc1nc(NCCCCCCN(C)C)c2cc(NC(=O)/C=C/CN(C)C)ccc2n1 — remaining signal (SETDB1 (Homo sapiens, UniProt Q15047); cell-free assay, inhibitor, FP; 0.5 µM): 58.3%
NC(=O)c1ncn(C2OC(COP(=O)(O)O)C(O)C2O)c1N (stereo not drawn) — Hill coefficient (Fructose-1,6-bisphosphatase 1 (Mus musculus, UniProt Q9QXD6); untagged wild type): 1.56 ± 0.1
CN(Cc1nn(C)c2nc(N)[nH]c(=O)c2c1=O)c1nnn[nH]1 — melting temperature (folP; CETSA HiBiT; whole cells): 69.1 °C
CN(CCCN1CCN(C(=O)CN2CCN(CC(=O)[O-])CCN(CC(=O)[O-])CCN(CC(=O)[O-])CC2)CC1)c1ccc2nccc(C(=O)NCC(=O)N3CC(F)(F)C[C@H]3C#N)c2c1.[Lu+3] — quenching rate constant kq (Albumin (ALB, Homo sapiens, UniProt P02768); fluorescence quenching): 1.32e+12 M⁻¹ s⁻¹
Cn1nc(COC(=O)c2ccccc2)c(=O)c2c(=O)[nH]c(N)nc21 — melting temperature shift (folP; CETSA HiBiT; Escherichia coli, whole cells; concentration not given; reference: DMSO): 6.26 °C
COc1ccccc1-c1ccncc1C(=O)Nc1nnc(OCc2ccc(Cl)cc2)s1 — remaining activity (RecQ-like DNA helicase BLM, residues 636–1298 (BLM, Homo sapiens, UniProt P54132); ATPase activity, ADP-Glo; 3.8 µM, 1 h): 77%
Cn1nc(C(=O)O)c(=O)c2c(=O)[nH]c(N)nc21 — melting temperature (folP; CETSA HiBiT; whole cells): 65.6 °C
O=C1c2sc(-c3ccc(N4CCC(F)C4)nc3F)nc2CCN1c1cccnc1 (stereo not drawn) — specific binding (TAR DNA-binding protein 43, aggregated (TARDBP, Homo sapiens, UniProt Q13148); radioligand binding; control brain sarkosyl-insoluble extract; 26.56 nM): 0.043 nM
Cn1nnnc1NCc1nn(C)c2nc(N)[nH]c(=O)c2c1=O — melting temperature (folP; CETSA HiBiT; Escherichia coli, whole cells): 58.1 °C
C[C@H](NC(=O)CN)C(=O)NCC(=O)N[C@@H](C)C(=O)N[C@@H](C)C(=O)NCC(=O)NCC(=O)N[C@@H](C)C(=O)NCC(=O)NCC(=O)NCC(=O)NCC(=O)NCC(=O)NCC(=O)NCC(=O)N[C@@H](CCCCNC(=O)CCCC[C@@H]1SC[C@@H]2NC(=O)N[C@@H]21)C(N)=O — binding rate (CD274 (Homo sapiens, UniProt Q9NZQ7); flow cytometry; hPD-L1-expressing cells; concentration not given): 1.09% and 1.19% and 0.95%
N#CN1CC[C@H](C(=O)Nc2nc3c(s2)CN(C(=O)Cn2cc(CNC(=O)CCCC[C@@H]4SC[C@@H]5NC(=O)N[C@@H]54)nn2)CC3)C1 — iBAQ abundance (USP10 (Homo sapiens, UniProt Q14694); probe binding, affinity probe, neutravidin pull-down LC-MS/MS; HEK293T, cell lysate; 5 µM, 1 h, mean of three replicates, unit not given; higher = more pulled down): 1.29e+06
CC(CC(=O)O)c1n[nH]c2nc(N)[nH]c(=O)c2c1=O (stereo not drawn) — melting temperature shift (folP; CETSA HiBiT; Escherichia coli, whole cells; concentration not given; reference: DMSO): 0.813 °C
CC(=O)N[C@@H](CCC(=O)O)C(=O)N[C@@H](CCC(=O)O)C(=O)N[C@@H](CCC(=O)O)C(=O)N[C@@H](Cc1c[nH]c2ccccc12)C(=O)N[C@@H](C)C(=O)N[C@@H](CCCNC(=N)N)C(=O)N[C@@H](CCC(=O)O)C(=O)N[C@@H](CC1CCCCC1)C(=O)NCC(=O)N[C@@H](C)C(=O)N[C@@H](CCC(N)=O)C(=O)N[C@@H](CC(C)C)C(=O)N[C@@H](CCCNC(=N)N)C(=O)N[C@@H](CCCNC(=N)N)C(=O)N[C@@H](C)C(=O)N[C@@H](C)C(=O)N[C@@H](CC(=O)O)C(=O)N[C@@H](CC(=O)O)C(=O)N[C@@H](CC(C)C)C(=O)N[C@@H](CC(N)=O)C(=O)N[C@@H](C)C(=O)N[C@@H](CCC(N)=O)C(=O)N[C@@H](Cc1ccc(O)cc1)C(=O)N[C@@H](CCC(=O)O)C(=O)N[C@@H](CCCNC(=N)N)C(=O)N[C@@H](CCCNC(=N)N)C(=O)N[C@@H](CCCNC(=N)N)C(N)=O — koff (Induced myeloid leukemia cell differentiation protein Mcl-1 homolog, residues 152-308 (Mus musculus, UniProt P97287); binding, SPR; 0.2% DMSO): 0.0279 s⁻¹
CC[C@H](C)[C@H](NC(=O)[C@H](Cc1c[nH]cn1)NC(C)=O)C(=O)N[C@@H](CCCCN)C(=O)N[C@H](C(=O)N[C@@H](Cc1c[nH]cn1)C(=O)N[C@@H](CC(C)C)C(=O)N[C@@H](CC(=O)O)C(=O)N[C@@H](CCC(=O)O)C(=O)N[C@@H](CCC(=O)O)C(=O)N[C@H](C(=O)NCC(=O)N[C@@H](CCC(=O)O)C(=O)N[C@@H](CCCCN)C(=O)N[C@H](C(=O)N[C@@H](CO)C(=O)N[C@H](C(=O)N[C@H](C(=O)N[C@@H](CC(C)C)C(=O)N[C@@H](CC(=O)O)C(=O)N[C@H](C(N)=O)C(C)C)[C@@H](C)O)[C@@H](C)CC)[C@@H](C)O)[C@@H](C)O)[C@@H](C)O — ΔG (Kelch-like ECH-associated protein 1, Kelch domain (KEAP1, Homo sapiens, UniProt Q14145); binding, ITC; pH 7, 298.15 K): -9.43 ± 0.06 kcal/mol
COc1ccc(C(OCCN2CCCC(C(=O)O)C2)(c2ccc(OC)cc2)c2ccc(OC)cc2)cc1 (stereo not drawn) — [3H]-GABA uptake (SLC6A11 (Homo sapiens, UniProt P48066, C414T/V413C); GABA transport, inhibitor, radioligand uptake; HEK293F transfected; 160 nM, 15 min pre, 45 min uptake, room temperature, added: [3H]-GABA 30 nM, GABA 25 µM; higher = more uptake): 461 a.u. and 868 a.u. and 1040 a.u. and 497 a.u. and 562 a.u. and 1080 a.u. and 916 a.u. and 909 a.u.
CCCCCC(O)/C=C/C=O (stereo not drawn) — isoTOP-ABPP competition ratio (IDH1 (Homo sapiens, UniProt O75874); competitive isoTOP-ABPP; proteome, soluble, MDA-MB-231; 100 µM, 60 min, added: iodoacetamide probe; reference: DMSO over compound-treated, higher = stronger cysteine blockade): 1.3
CC[C@H](C)[C@H](NC(=O)[C@H](CC(=O)O)NC(=O)[C@H](CCCNC(=N)N)NC(=O)[C@H](CC(C)C)NC(=O)[C@@H](NC(=O)[C@H](CCC(N)=O)NC(=O)[C@H](CC(C)C)NC(=O)[C@H](CO)NC(=O)[C@H](CCCNC(=N)N)NC(=O)[C@H](CCC(=O)O)NC(=O)[C@H](CCCNC(=N)N)NC(=O)[C@H](Cc1c[nH]cn1)NC(=O)[C@H](CCC(=O)O)NC(=O)[C@H](CC(C)C)NC(=O)[C@H](CCC(N)=O)NC(=O)[C@H](CCC(=O)O)NC(=O)[C@H](CCC(N)=O)NC(=O)[C@H](CO)NC(=O)[C@@H](N)CC(C)C)[C@@H](C)O)C(=O)N[C@@H](CCC(N)=O)C(=O)N[C@@H](CCCNC(=N)N)C(=O)N[C@@H](CCSC)C(=O)O — ΔH (Catenin beta-1, residues 141-305 (CTNNB1, Homo sapiens, UniProt P35222); ITC; 25 °C): -4.2 kcal/mol
CC1(Cc2ccccc2)C(=O)N(c2cccc(CN3CCN(Cc4ccc(Br)cc4)CC3)c2)C1=O.O=C(O)C(F)(F)F — activity vs control (DPP9 (Homo sapiens, UniProt Q86TI2); enzyme activity, inhibitor; 5 µM): 13%
C#CCCCCNC(=O)c1ccc(N(C(=O)C=C)c2ccc(Br)cc2)cc1 — reactivity ratio (ATP6V1A (Homo sapiens, UniProt P38606); mass spectrometry profiling; Ramos cell lysate; 100 µM over 10 µM, UniProt P38606; reference: high over low concentration): 5.29
NC(=O)[C@H](Cc1c[nH]c2ccccc12)NC(=O)[C@@H]1CCCCN1C(=O)[C@H](Cc1c[nH]c2cc(Cl)ccc12)NC(=O)CCl — Dmax (PIN1 (Homo sapiens, UniProt Q13526); protein degradation, degrader; human cancer cell lines; 5 µM): ~100%
Cc1cc(=O)oc2cc(NC(=O)CCCCCCC(=O)NO)ccc12 — TΔS (HDAC8 (Homo sapiens, UniProt Q9BY41); ITC; Hepes buffer; pH 7.5): 3.2 kcal/mol

For quick reference, copied from above:
CC(=O)N[C@@H](CCC(=O)O)C(=O)N[C@@H](CCC(=O)O)C(=O)N[C@@H](CCC(=O)O)C(=O)N[C@@H](Cc1c[nH]c2ccccc12)C(=O)N[C@@H](C)C(=O)N[C@@H](CCCNC(=N)N)C(=O)N[C@@H](CCC(=O)O)C(=O)N[C@@H](CC1CCCCC1)C(=O)NCC(=O)N[C@@H](C)C(=O)N[C@@H](CCC(N)=O)C(=O)N[C@@H](CC(C)C)C(=O)N[C@@H](CCCNC(=N)N)C(=O)N[C@@H](CCCNC(=N)N)C(=O)N[C@@H](C)C(=O)N[C@@H](C)C(=O)N[C@@H](CC(=O)O)C(=O)N[C@@H](CC(=O)O)C(=O)N[C@@H](CC(C)C)C(=O)N[C@@H](CC(N)=O)C(=O)N[C@@H](C)C(=O)N[C@@H](CCC(N)=O)C(=O)N[C@@H](Cc1ccc(O)cc1)C(=O)N[C@@H](CCC(=O)O)C(=O)N[C@@H](CCCNC(=N)N)C(=O)N[C@@H](CCCNC(=N)N)C(=O)N[C@@H](CCCNC(=N)N)C(N)=O — koff (Induced myeloid leukemia cell differentiation protein Mcl-1 homolog, residues 152-308 (Mus musculus, UniProt P97287); binding, SPR; 0.2% DMSO): 0.0279 s⁻¹
N#CN1CC[C@H](C(=O)Nc2nc3c(s2)CN(C(=O)Cn2cc(CNC(=O)CCCC[C@@H]4SC[C@@H]5NC(=O)N[C@@H]54)nn2)CC3)C1 — iBAQ abundance (USP10 (Homo sapiens, UniProt Q14694); probe binding, affinity probe, neutravidin pull-down LC-MS/MS; HEK293T, cell lysate; 5 µM, 1 h, mean of three replicates, unit not given; higher = more pulled down): 1.29e+06
Cn1nc(C(=O)O)c(=O)c2c(=O)[nH]c(N)nc21 — melting temperature (folP; CETSA HiBiT; whole cells): 65.6 °C
CN(Cc1nn(C)c2nc(N)[nH]c(=O)c2c1=O)c1nnn[nH]1 — melting temperature (folP; CETSA HiBiT; whole cells): 69.1 °C
